Measurements gathered from unrelated publications.
Each line is one published result; not all experiments were run side by side. ± gives the spread as reported.
CYP2B6: Cytochrome P450 2B6 (CYP2B6, Homo sapiens, UniProt P20813)

Structure (SMILES) = C[C@H](NC(=O)[C@H](CCC(N)=O)NC(=O)[C@H](CCCCN)NC(=O)[C@H](C)NC(=O)[C@@H]1CCCN1C(=O)[C@H](C)NC(=O)[C@H](CCCCN)NC(=O)[C@H](CCC(N)=O)NC(=O)[C@H](C)NC(=O)[C@H](CCCCN)NC(=O)[C@H](CCC(N)=O)NC(=O)[C@@H]1CCCN1C(=O)[C@H](CCC(N)=O)NC(=O)[C@H](CCCCN)NC(=O)[C@H](C)NC(=O)[C@H](CCC(N)=O)NC(=O)[C@H](CCCCN)NC(=O)[C@H](C)NC(=O)[C@@H]1CCCN1C(=O)[C@H](C)NC(=O)[C@H](CCCCN)NC(=O)[C@H](CCC(N)=O)NC(=O)[C@H](C)NC(=O)[C@H](CCCCN)NC(=O)[C@H](CO)NC(=O)[C@H](Cc1ccc(O)cc1)NC(=O)CNC(=O)CNC(=O)CN)C(=O)N[C@@H](CCCCN)C(=O)N[C@@H](CCC(N)=O)C(=O)O; test = binding, SPR two-state model; test system = rVλ6Wil fibrils; conditions = 300 nM; endpoint = kd1; result = 0.045 s⁻¹
Structure (SMILES) = CC[C@H](C)[C@H](N)C(=O)N[C@H](C(=O)N[C@@H](CO)C(=O)N[C@H](C(=O)N[C@H](C(=O)NCC(=O)N[C@@H](CC(=O)O)C(=O)N[C@@H](Cc1c[nH]c2ccccc12)C(=O)N[C@H](C(=O)N[C@@H](CCCCN)C(=O)N[C@@H](CC(C)C)C(=O)N[C@H](C(=O)N[C@H](C(=O)N[C@@H](CC(=O)O)C(=O)N[C@H](C(=O)N[C@H](C(=O)N[C@@H](CC(N)=O)C(=O)N[C@@H](CCCCN)C(=O)N[C@@H](Cc1ccccc1)C(=O)N[C@H](C(=O)N[C@@H](CCCCN)C(=O)N[C@@H](CCCCN)C(=O)O)[C@@H](C)O)C(C)C)[C@@H](C)O)[C@@H](C)CC)[C@@H](C)CC)C(C)C)[C@@H](C)CC)[C@@H](C)O)[C@@H](C)CC; test = lipid vesicle binding; test system = POPC vesicles; conditions = pH 7.5; endpoint = Kd; result = 190 µM
Structure (SMILES) = CCCCCc1cc(O)c2c(c1)OC(C)(C)C1CCC(CO)=CC21 (centres unmarked); tested on = CYP2B6; test = enzyme activity, inhibitor; test system = HEK293, liver microsomes; conditions = pH 7.4; endpoint = Ki; result = 1.1 µM
Structure (SMILES) = CN[C@](C)(C[18F])C(=O)O; tested on = MDA-MB-468 tumour model; test system = host not given, liver; conditions = 30 min, tumour-bearing; endpoint = tracer uptake; result = 4.2 %ID/g
Structure (SMILES) = COc1cc(-c2cnc3nc2NCCCNS(=O)(=O)c2cc(ccc2OC)N3)ccc1F; tested on = ABL1 (Homo sapiens, UniProt P00519); test = target engagement in cells, BRET; endpoint = EC50; result = > 50 µM
Structure (SMILES) = O=P(O)(O)Oc1ccc(Oc2ccc(S(=O)(=O)CC3CS3)cc2)cc1 (racemic); tested on = MMP2 (Homo sapiens, UniProt P08253); test = enzyme activity, inhibitor; endpoint = Ki; result = 11.7 µM
Structure (SMILES) = CC(C)[C@H](NC(=O)[C@H](CCCNC(=N)N)NC(=O)[C@@H](NC(=O)[C@H](CCC(N)=O)NC(=O)[C@H](CCC(N)=O)NC(=O)[C@@H](NC(=O)[C@H](Cc1c[nH]c2ccccc12)NC(=O)[C@@H]1CCCN1C(=O)[C@@H]1CCCN1C(=O)[C@H](Cc1ccc(N)cc1)NC(=O)[C@H](CO)NC(=O)CNC(=O)[C@H](CCCNC(=N)N)NC(=O)[C@H](CCCNC(=N)N)NC(=O)[C@H](CCCNC(=N)N)NC(=O)[C@H](CCCNC(=N)N)NC(=O)[C@H](CCCNC(=N)N)NC(=O)[C@@H](N)CCCNC(=N)N)C(C)C)[C@@H](C)O)C(=O)O; tested on = Disks large homolog 4, PDZ3 domain (Homo sapiens, UniProt P78352); test = binding, SPR; conditions = pH 7.5, 25 °C; endpoint = Kd; result = 0.0678 µM
Structure (SMILES) = CCS(=O)(=O)Nc1cc(-c2cn(C)c3c(=O)[nH]ccc23)cc2c1ccn2C(C)(c1ccccn1)c1ccccn1; tested on = CREBBP (Homo sapiens, UniProt Q92793); test = cell-free assay; endpoint = IC50; result = 0.116 µM
Structure (SMILES) = N=C(N)NCCC[C@@H]1NC(=O)[C@H](CCCCNC(=O)CNC(=O)CNC(=O)CNC(=O)CC[C@H](NC(=O)CCOCCOCCOCCOCCNC(=O)CC[C@H](NC(=O)CN2CCN(CC(=O)O)CCN(CC(=O)O)CCN(CC(=O)O)CC2)C(=O)NCCOCCOCCOCCOCCC(=O)N[C@@H](CCC(=O)NCC(=O)NCC(=O)NCC(=O)NCCCC[C@@H]2NC(=O)[C@@H](Cc3ccccc3)NC(=O)[C@H](CC(=O)O)NC(=O)CNC(=O)[C@H](CCCNC(=N)N)NC2=O)C(=O)NCC(=O)NCC(=O)NCC(=O)NCCCC[C@@H]2NC(=O)[C@@H](Cc3ccccc3)NC(=O)[C@H](CC(=O)O)NC(=O)CNC(=O)[C@H](CCCNC(=N)N)NC2=O)C(=O)NCC(=O)NCC(=O)NCC(=O)NCCCC[C@@H]2NC(=O)[C@@H](Cc3ccccc3)NC(=O)[C@H](CC(=O)O)NC(=O)CNC(=O)[C@H](CCCNC(=N)N)NC2=O)NC(=O)[C@@H](Cc2ccccc2)NC(=O)[C@H](CC(=O)O)NC(=O)CNC1=O [indium-111 labelled]; test system = athymic nude mice, female, U-87 MG glioma xenograft, tumour and blood; conditions = intravenous, 72 h; how to read = baseline: tumour over blood; endpoint = tumour to tissue ratio; result = 94 ± 22.3
Structure (SMILES) = CCCCCc1cc(O)c2c(c1)OC(C)(C)C1CCC(C)=CC21 (single isomer, unassigned; (-)); tested on = CYP2B6; test = enzyme activity, inhibitor; test system = human, liver microsomes; conditions = pH 7.4; endpoint = IC50; result = 19 µM
Structure (SMILES) = CC(=O)N[C@@H](Cc1c[nH]cn1)C(=O)N[C@@H](CCCNC(=N)N)C(=O)N[C@@H](CCCNC(=N)N)C(=O)N[C@@H](CCCNC(=N)N)C(=O)N[C@@H](CCCNC(=N)N)C(=O)N[C@@H](CCCNC(=N)N)C(=O)N[C@@H](CCCNC(=N)N)C(=O)N[C@@H](CCCNC(=N)N)C(=O)N[C@@H](CCCNC(=N)N)C(=O)N[C@@H](Cc1c[nH]cn1)C(N)=O; tested on = Albumin (ALB, Bos taurus, UniProt P02769); test = fluorescence quenching; endpoint = binding constant; result = 520000 M⁻¹
Structure (SMILES) = COc1ccc(C[C@H]2C(=O)N(C)[C@@H](Cc3ccc(O)cc3)C(=O)N(C)[C@@H](Cc3ccccc3)C(=O)N[C@@H](CC(N)=O)C(=O)NCC(=O)N(C)[C@@H](Cc3ccc(O)cc3)C(=O)N[C@@H](CC(N)=O)C(=O)N[C@@H](Cc3c[nH]cn3)C(=O)N[C@@H](Cc3ccc(O)cc3)C(=O)N[C@@H](Cc3c[nH]c4ccccc34)C(=O)N[C@H](C(N)=O)CSCC(=O)N[C@H](Cc3ccc(O)cc3)C(=O)N[C@@H](CC(=O)O)C(=O)N[C@@H](CO)C(=O)N[C@@H](Cc3ccc(O)cc3)C(=O)N[C@@H](C)C(=O)N2C)cc1; tested on = 2,3-bisphosphoglycerate-independent phosphoglycerate mutase (Helicobacter pylori, UniProt B5Z7X6); test = biochemical; endpoint = AC50; result = 0.977 µM
Structure (SMILES) = N=C(N)NCCC[C@@H]1NC(=O)[C@H](CCCCNC(=O)CC[C@H](NC(=O)CCOCCOCCOCCOCCNC(=O)CC[C@H](NC(=O)CN2CCN(CC(=O)O)CCN(CC(=O)O)CCN(CC(=O)O)CC2)C(=O)NCCOCCOCCOCCOCCC(=O)N[C@@H](CCC(=O)NCCCC[C@@H]2NC(=O)[C@@H](Cc3ccccc3)NC(=O)[C@H](CC(=O)O)NC(=O)CNC(=O)[C@H](CCCNC(=N)N)NC2=O)C(=O)NCCCC[C@@H]2NC(=O)[C@@H](Cc3ccccc3)NC(=O)[C@H](CC(=O)O)NC(=O)CNC(=O)[C@H](CCCNC(=N)N)NC2=O)C(=O)NCCCC[C@@H]2NC(=O)[C@@H](Cc3ccccc3)NC(=O)[C@H](CC(=O)O)NC(=O)CNC(=O)[C@H](CCCNC(=N)N)NC2=O)NC(=O)[C@@H](Cc2ccccc2)NC(=O)[C@H](CC(=O)O)NC(=O)CNC1=O [indium-111 labelled]; test system = athymic nude mice, female, U-87 MG glioma xenograft, tumour and kidney; conditions = intravenous, 1 h; how to read = baseline: tumour over kidney; endpoint = tumour to tissue ratio; result = 1.6 ± 0.27
Structure (SMILES) = C[C@H](NC(=O)[C@H](CCC(N)=O)NC(=O)[C@H](C)NC(=O)[C@H](CCCCN)NC(=O)[C@H](CCC(N)=O)NC(=O)[C@H](C)NC(=O)[C@H](CCCCN)NC(=O)[C@H](CCC(N)=O)NC(=O)[C@H](C)NC(=O)[C@H](CCC(N)=O)NC(=O)[C@H](CCCCN)NC(=O)[C@H](C)NC(=O)[C@H](CCC(N)=O)NC(=O)[C@H](CCCCN)NC(=O)[C@H](C)NC(=O)[C@H](CCC(N)=O)NC(=O)[C@H](C)NC(=O)[C@H](CCCCN)NC(=O)[C@H](CCC(N)=O)NC(=O)[C@H](C)NC(=O)[C@H](CCCCN)NC(=O)[C@H](CO)NC(=O)[C@H](Cc1ccc(O)cc1)NC(=O)CNC(=O)CNC(=O)CN)C(=O)N[C@@H](CCCCN)C(=O)N[C@@H](CCC(N)=O)C(=O)N[C@@H](C)C(=O)N[C@@H](CCCCN)C(=O)N[C@@H](CCC(N)=O)C(=O)O; test = binding, SPR Langmuir fit; test system = rVλ6Wil fibrils; conditions = 300 nM, pH 7.4; endpoint = dissociation rate constant; result = 0.00044 s⁻¹
Structure (SMILES) = CCN(Cc1ccccc1)C(=O)CCc1nc(CN2CCN(C(=O)Cc3ccc(OC)c(OC)c3)CC2)no1; tested on = KCNQ5 (Homo sapiens, UniProt Q9NR82); test = potassium current, whole-cell patch clamp; test system = transfected cells; conditions = 3 µM; endpoint = activation V1/2; result = -54.3 ± 1.3 mV
Structure (SMILES) = CC(C)C[C@H](NC(=O)[C@H](CCCNC(=N)N)NC(=O)[C@H](Cc1ccccc1)NC(=O)[C@H](Cc1ccccc1)NC(=O)[C@@H](NC(=O)[C@@H](CO)NC(=O)[C@H](CC(C)C)NC(=O)[C@H](CO)NC(=O)CNC(=O)[C@@H](N)CO)[C@@H](C)O)C(=O)N[C@@H](Cc1ccccc1)C(=O)N[C@@H](CC(N)=O)C(=O)N[C@@H](CCCNC(=N)N)C(=O)N[C@@H](CO)C(=O)N[C@@H](Cc1ccccc1)C(=O)N[C@H](C(=O)N[C@@H](CCC(N)=O)C(=O)N[C@@H](C)C(=O)O)[C@@H](C)O; tested on = uncharacterized protein (Streptococcus mutans serotype c, UniProt Q8DS94); test system = Streptococcus mutans; endpoint = EC50; result = 0.017 µM
Structure (SMILES) = NCCCC[C@H](NC(=O)CNC(=O)CNC(=O)[C@H](CCCCN)NC(=O)CNC(=O)CNC(=O)CNC(=O)[C@H](CCCCN)NC(=O)CNC(=O)CNC(=O)[C@H](CCCCN)NC(=O)CNC(=O)CNC(=O)CNC(=O)[C@H](CCCCN)NC(=O)CNC(=O)CNC(=O)[C@H](CCCCN)NC(=O)CNC(=O)CNC(=O)CNC(=O)[C@H](CCCCN)NC(=O)CNC(=O)CNC(=O)[C@H](CCCCN)NC(=O)[C@H](CO)NC(=O)[C@H](Cc1ccc(O)cc1)NC(=O)CNC(=O)CNC(=O)CN)C(=O)NCC(=O)O; test = binding, SPR Langmuir fit; test system = rVλ6Wil fibrils; conditions = pH 7.4; endpoint = Kd; result = 0.018 µM

A few entries again:
Structure (SMILES) = COc1cc(-c2cnc3nc2NCCCNS(=O)(=O)c2cc(ccc2OC)N3)ccc1F; tested on = ABL1 (Homo sapiens, UniProt P00519); test = target engagement in cells, BRET; endpoint = EC50; result = > 50 µM
